Published values of several laboratories.
Every numbered part comes from another study and shows a few of its results, in no order. Positions count from the first letter of the parent shown.

Block 1 — technique: RNA Bind-n-Seq; molecule type: RNA; medium: in vitro; tested at: not given; notes: RNA with constant flanks, ends assumed; reference: input RNA pool; reading: higher = stronger binding; endpoint: bound/input enrichment
Target: RING finger protein unkempt homolog, zinc fingers 1-6, GST-SBP tag (UNK, Homo sapiens, UniProt Q9C0B0, residues 30-357)
Chain of UniProt Q9C0B0 (30-357, looked up): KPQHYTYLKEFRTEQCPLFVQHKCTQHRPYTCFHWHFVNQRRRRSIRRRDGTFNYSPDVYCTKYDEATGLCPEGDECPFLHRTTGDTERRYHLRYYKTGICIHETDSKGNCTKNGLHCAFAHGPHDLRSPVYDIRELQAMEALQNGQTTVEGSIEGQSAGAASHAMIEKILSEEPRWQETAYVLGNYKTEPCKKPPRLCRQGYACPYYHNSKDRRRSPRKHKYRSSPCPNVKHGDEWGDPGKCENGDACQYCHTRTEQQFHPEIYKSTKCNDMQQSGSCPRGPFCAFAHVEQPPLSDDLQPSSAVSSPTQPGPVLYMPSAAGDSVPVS
Constant ends, left off below: GGGAGUUCUACAGUCCGACGAUC … CAACAGAGGAUUGAGCAUCA
GUCAUUGAUGUCCUUCACCCCGGGAAGGCGACAGUGCCUAAGACAGAAAUUCGGGAAAAACCCGCCAAAAUGUACAAGACCACACCGGAUGUCAUCUUUGUAUUUGGAUUCAGAACUCAU: 0.355 ratio
AUCUUUGGCUAGUGCUUUUCAAUUAUCUGAAGAUGGAGACUCAAUUCCUUAUACUAUUAACCGGUACUUGCGAGAUUACCAAAGGGAGGGGGCUCAGUUCCUCUACAGACACUACAUAGA: 0.61 ratio
CUGCUCCUCUCCUGGGCGGCGGGGCUGGGAGGUCAGUAUGGAAAUCCUUUAAAUAAAUAUAUCCGACAUUAUGAAGGAUUAUCUUACAAUGUGGAUUCAUUACACCAAAAACACCAGCGU: 0.336 ratio
GUGACAUCUAAUGAGGUGUGAGCACGGAAGGUUCUUUUUUUCAGUGGCUCUUUUGUCAGAACCCGAGUCAGCCAUCACCCUCGCAGCAACCACCUGACUGCAGGUCAGAUCUCCCCCAGG: 0.2 ratio
UGUGGCGAUUCAGAUAAAGGAUUUGUUGUUAUUAAUCAAAAGGGAAUUGACCCCUUUUCCUCCGAUGCUCUUUCAAAAGAAGGCAUAGUUGCUCUGCGCAGAGCUAAAAGGAGAAAUAUG: 0.257 ratio

Block 2 — target: CCNA2, cyclin fold, Cln2 fusion (human); technique: yeast growth competition, sequencing; medium: yeast; notes: strong parent motif; reference: not given; reading: higher = stronger binding; endpoint: normalised enrichment score
Starting sequence: PKMYT1 docking peptide (human); SFEPRNLLSLFED
SFEPRNLLSGFED [L10G]: 0.121
SFHPRNLLSLFED [E3H]: 3.73
SFEPRNLLSLFEY [D13Y]: 2.69
SFEPGNLLSLFED [R5G]: -0.311
SFEPRNILSLFED [L7I]: 0.236
SFEPRVLLSLFED [N6V]: 0.0681
SFEPRNLLSHFED [L10H]: 1.47
SFEPRNLLSLQED [F11Q]: -0.437
SFEPRYLLSLFED [N6Y]: -0.485
SFEPRNLLSLYED [F11Y]: 1.79

Block 3 — technique: protein binding microarray; molecule type: double-stranded DNA, one strand shown; medium: in vitro; tested at: not given; reference: not given; reading: higher = stronger binding; endpoint: E-score
Target: Histone acetyltransferase KAT6A, winged helix 1, GST fusion (KAT6A, Homo sapiens, UniProt Q92794, residues 1-85)
Notes: 8-mer, flanks averaged, mean of 2 arrays, mostly near background
Construct (chain): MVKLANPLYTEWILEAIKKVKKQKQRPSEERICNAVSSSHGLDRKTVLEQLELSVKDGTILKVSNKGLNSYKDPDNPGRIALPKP
GATTGTAA: -0.125
CCATAGGG: -0.23
TAAACTGA: -0.0324
CATGGCCG: 0.275
AACCTTAG: -0.0905
TATCGCGA: 0.146
ATTCAACG: -0.0379
GCCTCAGA: 0.161
CTGGCCGA: 0.182
GCGCTGGA: 0.319
ATCCGCTC: 0.209
AGTGGTAC: -0.137
CCAGTCCC: -0.141

Other studies, line by line
PhoQ, residues 284 288 289 292 302 303 ASASEQ
fold induction (PhoP, residues 12 14 15 18 19 NYFRM (Escherichia coli, UniProt P23836); Sort-seq, item: YFP reporter; E. coli; PhoQ-PhoP variant library, together with: 10 µM Mg2+; reference: high Mg2+ state, higher = stronger signaling): 0.842

Excerpt of the above (block 2):
SFEPRNLLSLQED [F11Q]: -0.437
SFEPRYLLSLFED [N6Y]: -0.485
